Measurements pooled from the literature.
Parts stem from different laboratories: compare values within a part only.

Series 1
Target: Prothrombin, mature alpha-thrombin (F2, Homo sapiens, UniProt P00734)
Technique: aptamer microarray, sandwich
Form: DNA with 2'F-ANA
Matrix: in vitro
Tested at: 200 nM
Notes: whole 15-mer aptamer, many near background
With: Cy3 exosite-II aptamer, 400 nM
Reading: higher = stronger binding
Sequence | mean fluorescence intensity
GGTTGGTGTGGTTGG (2'F-ANA at 1 4 7 9 11 12 13 14 15) | 54.6 a.u.
GGTTGGTGTGGTTGG (2'F-ANA at 5 6 9 10 13) | 49.8 a.u.
GGTTGGTGTGGTTGG (2'F-ANA at 1 4 6 8 9 14 15) | 51.6 a.u.
GGTTGGTGTGGTTGG (2'F-ANA at 1 3 4 5 7 8 9 11 12 13 15) | 75.3 a.u.

Series 2
Target: Histone acetyltransferase KAT6A, both winged helices, GST fusion (KAT6A, Homo sapiens, UniProt Q92794, residues 1-181)
Technique: protein binding microarray
Form: double-stranded DNA, one strand shown
Matrix: in vitro
Tested at: not given
Notes: 8-mer, flanks averaged, mean of 2 arrays, mostly near background
Reference: not given
Reading: higher = stronger binding
Residues (chain): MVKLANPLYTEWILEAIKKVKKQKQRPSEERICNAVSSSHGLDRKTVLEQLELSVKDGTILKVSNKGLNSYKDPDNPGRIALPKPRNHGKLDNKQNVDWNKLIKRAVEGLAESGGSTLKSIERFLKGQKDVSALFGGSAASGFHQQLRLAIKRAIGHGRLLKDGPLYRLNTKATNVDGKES
Sequence | E-score
GCCGATAA | 0.13
TCTATTAA | -0.047
TGCCGGCA | 0.356

Series 3
Target: Sox-I, HMG box (Salpingoeca helianthica)
Technique: Spec-seq
Form: double-stranded DNA, one strand shown
Matrix: in vitro
Tested at: not given
Notes: whole probe, mean of replicates
Reference: not given
Reading: lower = stronger binding
Construct (chain): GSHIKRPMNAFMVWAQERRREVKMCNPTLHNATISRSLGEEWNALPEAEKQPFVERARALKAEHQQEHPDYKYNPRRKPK
Sequence | relative binding energy
GAGTCGTCTCGTCAGCACCATAGTCCCGTAGAGCACTCAGGTC | 0.205 ln ratio
GAGTCGTCTCGTCAGCACGCAGGTTCCGTAGAGCACTCAGGTC | 1.03 ln ratio
GAGTCGTCTCGTCAGCACGGATGTTCCGTAGAGCACTCAGGTC | 0.372 ln ratio
GAGTCGTCTCGTCAGCACTGGTGTTCCGTAGAGCACTCAGGTC | 0.323 ln ratio

Single results of other studies
Substance | target | test | system | setting | scale | measurement | value
PhoQ, residues 284 288 289 292 302 303 TNASYF | PhoP, residues 12 14 15 18 19 LQHIR (Escherichia coli, UniProt P23836) | Sort-seq, measured: YFP reporter | E. coli | PhoQ-PhoP variant library, with: 10 µM Mg2+ | reference: high Mg2+ state, higher = stronger signaling | fold induction | 8.05

A few entries again (series 1):
Sequence | mean fluorescence intensity
GGTTGGTGTGGTTGG (2'F-ANA at 1 3 4 5 7 8 9 11 12 13 15) | 75.3 a.u.
